Measurements of several laboratories.
Numbers after ± are the reported error.

SMILES = CNS(=O)(=O)Nc1nccc(Cc2c(C)c3ccc(Oc4ncccc4F)cc3oc2=O)c1F; target or system = NCI-H508; test = cell viability; setting = 7 days; measurement = IC50; value = 968 pM
SMILES = O=C(N/N=C/c1ccc2c(ccc[n+]2Cc2ccccc2)c1)C(=O)N/N=C/c1ccc2c(ccc[n+]2Cc2ccccc2)c1; target or system = hp2 hairpin duplex DNA; test = FRET melting; setting = 1 µM; measurement = ΔTm; value = 1.8 ± 0.3 °C
SMILES = C=CC(=O)N1[C@@H](c2ccc3c(c2)OCO3)c2[nH]c3ccccc3c2C[C@H]1C(=O)N1CCN(C)CC1; target or system = human cyclin E1 N112C-3xFLAG:CDK2; test = co-IP with TMT proteomics, refers to: TK1; setting = concentration not given, P04183; scale = baseline: wild type DMSO; measurement = relative co-enrichment; value = 92%
SMILES = c1ccc(-c2n[nH]cc2-c2ccnc3ccccc23)nc1; target or system = RIO2 (Candida albicans); test = kinase binding, MIB/MS competition; test system = Candida albicans lysate; setting = 1 µM; scale = baseline: DMSO; measurement = log2 fold change; value = 0.14
SMILES = COC1OC(C)C(O)C(OC2OC(C)C(O)C(OC3OC(C)C(O)C(OC4OC(C)C(O)C(OC5OC(C)C(O)C(OC6OC(C)C(O)C(OC7OC(C)C(O)C(OC8OC(C)C(O)C(OC9OC(C)C(O)C(OC%10OC(C)C(O)C(OC%11OC(C)C(O)C(OS(=O)(=O)O)C%11OS(=O)(=O)O)C%10OS(=O)(=O)O)C9OS(=O)(=O)O)C8OS(=O)(=O)O)C7OS(=O)(=O)O)C6OS(=O)(=O)O)C5OS(=O)(=O)O)C4OS(=O)(=O)O)C3OS(=O)(=O)O)C2OS(=O)(=O)O)C1OS(=O)(=O)O (stereo not shown); test system = human plasma; setting = 128 µg/mL; scale = baseline: control; measurement = prothrombin time prolongation; value = 0.96 fold
SMILES = C=CC(=O)Nc1cccc(Cn2ncc3cnc(Nc4cnn(CCOC)c4)nc32)c1; target or system = TLK2 human; test = binding, KINOMEscan; setting = 100 nM; scale = lower = stronger binding; measurement = percent of control; value = 100%
SMILES = O=C(N/N=C/c1cc[n+](Cc2ccccc2)c2ccccc12)c1ccc2ccc(C(=O)N/N=C/c3cc[n+](Cc4ccccc4)c4ccccc34)nc2n1; target or system = hp2 hairpin duplex DNA; test = FRET melting; setting = 1 µM, with: ds26 10 µM; measurement = ΔTm; value = 0.8 ± 0.2 °C
SMILES = CN1CCCNC(=O)c2cccc(c2)C(=O)NCCCN(C)CCCNc2cccc3c2C(=O)c2cccc(c2C3=O)NCCC1; target or system = SAS; test = RNA-Seq, refers to: CCDC122 mRNA; setting = 1 µM, 6 h; scale = baseline: untreated cells; measurement = log2 fold change; value = 1.55
SMILES = COC1CN([C@H]2CC[C@H]([C@@]3(C)Oc4c(Cl)cc(C(=O)NCc5c(SC)cc(C)[nH]c5=O)c(C)c4O3)CC2)C1; test = RNA-seq, refers to: ELOVL6 mouse homolog; test system = mouse, HT-1376 xenograft, whole blood; setting = dose not given; scale = baseline: vehicle; measurement = log2 fold change; value = 0.968
SMILES = Cc1ncsc1-c1ccc(C(C)NC(=O)C2CC(O)CN2C(=O)C(NC(=O)CCCCCCCCCCN2CCCC(Nc3ncc(Cl)c(Nc4ccccc4S(=O)(=O)C(C)C)n3)C2)C(C)(C)C)cc1 (stereo not shown); target or system = 22Rv1; test = RNA-seq, refers to: RECQL5 mRNA; setting = concentration not given; scale = baseline: DMSO; measurement = log2 fold change; value = -1.26
SMILES = C[n+]1ccc(/C=N/NC(=O)c2ccc3ccc4ccc(C(=O)N/N=C/c5cc[n+](C)cc5)nc4c3n2)cc1; target or system = MYC parallel G4 DNA; test = FRET melting; setting = 1 µM, DNA 0.2 µM, with: duplex DNA competitor 10 µM; measurement = ΔTm; value = 6.9 ± 0.3 °C
SMILES = C(=N\Nc1nc(-c2ccccn2)nc2ccccc12)/c1ccccc1; target or system = Mus musculus; test = gene silencing, high-content imaging; test system = LDR reporter GFP cells; setting = 30 h, retest run 1; measurement = Emax; value = 130%
SMILES = O=C(N/N=C/c1cc[n+](CC2CC2)c2ccccc12)c1cncc(C(=O)N/N=C/c2cc[n+](CC3CC3)c3ccccc23)n1; target or system = hp2 hairpin duplex DNA; test = FRET melting; setting = 1 µM, with: ds26 10 µM; measurement = ΔTm; value = 1.4 °C
SMILES = Nc1ncc(-c2cc(-c3cnn(CC(F)(F)F)c3)ncc2F)nc1C(=O)NC1CNCC(F)C1 (stereo not shown); target or system = IRAK4; test = KINOMEscan; setting = 1 µM; scale = baseline: DMSO control; measurement = remaining binding; value = 90%
SMILES = O=C(N/N=C/c1ccc2c(ccc[n+]2Cc2ccccc2)c1)c1cccc(C(=O)N/N=C/c2ccc3c(ccc[n+]3Cc3ccccc3)c2)n1; target or system = hp2 hairpin duplex DNA; test = FRET melting; setting = 1 µM; measurement = ΔTm; value = 3.6 ± 1.9 °C
SMILES = CC1=C/C(=N\N=C(/S)Nc2cccnc2)CC(C)(C)C1; target or system = Mus musculus; test = gene silencing, high-content imaging; test system = LDR reporter GFP cells; setting = 30 h, retest run 2; measurement = Emax; value = 68%

Some of these lines once more:
SMILES = C=CC(=O)N1[C@@H](c2ccc3c(c2)OCO3)c2[nH]c3ccccc3c2C[C@H]1C(=O)N1CCN(C)CC1; target or system = human cyclin E1 N112C-3xFLAG:CDK2; test = co-IP with TMT proteomics, refers to: TK1; setting = concentration not given, P04183; scale = baseline: wild type DMSO; measurement = relative co-enrichment; value = 92%
SMILES = c1ccc(-c2n[nH]cc2-c2ccnc3ccccc23)nc1; target or system = RIO2 (Candida albicans); test = kinase binding, MIB/MS competition; test system = Candida albicans lysate; setting = 1 µM; scale = baseline: DMSO; measurement = log2 fold change; value = 0.14
